# Earlier results that unrelated publications cite.
# Each line is one published result; not all experiments were run side by side. pIC50, pKi: −log10 of the molar value.
SMILES,target or system,test,system,conditions,scale,quantity,value
CC[C@H](CC(=O)O)n1c(=O)c2ncccc2n(Cc2cn(C)c3cc(C)cc(C)c23)c1=O,cathepsin G,Eurofins protease panel,,,,pIC50,6.96
CC#CC(=O)N1CC[C@@H](n2c(=O)n(-c3ccc(Oc4ccccc4)cc3)c3c(N)ncnc32)C1,,,rat,"concentration not given, with: fluconazole or voriconazole",,plasma exposure,increased
O=C(Nc1ccc(Oc2ccc(F)cc2)cc1)N1CCc2ncccc2[C@H]1c1ccc(F)cc1,LHCGR,cellular activity,,,,pIC50,< 4.80
CCCCCCCCNC(C)C(O)c1ccc(SC(C)C)cc1 (centres unmarked),MCF7,"microarray, item: SLC38A2 mRNA",,concentration not given,reference: DMSO,log2 fold change,1.19
O=C(Nc1cccnn1)N1CCC(=Cc2cccc(Oc3ccc(C(F)(F)F)cn3)c2)CC1,5-HT2A receptor,Cerep binding,,,,pKi,5.80
CC[C@H](C)C(=O)O[C@H]1C[C@@H](C)C=C2C=C[C@H](C)[C@H](CC[C@@H]3C[C@@H](O)CC(=O)O3)[C@H]21,Toxoplasma gondii,parasite growth,,"concentration not given, published screen",,activity class,inactive
Cc1nccc(COC(=O)N2C[C@@H]3[C@@H](CNC(=O)c4ccc5[nH]nnc5c4)[C@@H]3C2)n1,ENPP2,biochemical activity,,,,pIC50,5.05
CC[C@H]1OC(=O)[C@H](C)[C@@H](O[C@H]2C[C@@](C)(OC)[C@@H](O)[C@H](C)O2)[C@H](C)[C@@H](O[C@@H]2O[C@H](C)C[C@H](N(C)C)[C@H]2O)[C@](C)(O)C[C@@H](C)CN(C)[C@H](C)[C@@H](O)[C@]1(C)O,Toxoplasma gondii,parasite growth,,concentration not given,,antiparasitic activity,active

# For quick reference, copied from above:
SMILES,target or system,test,system,conditions,scale,quantity,value
CC[C@H](CC(=O)O)n1c(=O)c2ncccc2n(Cc2cn(C)c3cc(C)cc(C)c23)c1=O,cathepsin G,Eurofins protease panel,,,,pIC50,6.96
